# Measurements collected from several papers.
# A part holds a random share of what one study measured. Values joined by “and” are separate records of one study, mostly repeats; a detail may differ.
# Chain of UniProt O95835 (whole entry, looked up): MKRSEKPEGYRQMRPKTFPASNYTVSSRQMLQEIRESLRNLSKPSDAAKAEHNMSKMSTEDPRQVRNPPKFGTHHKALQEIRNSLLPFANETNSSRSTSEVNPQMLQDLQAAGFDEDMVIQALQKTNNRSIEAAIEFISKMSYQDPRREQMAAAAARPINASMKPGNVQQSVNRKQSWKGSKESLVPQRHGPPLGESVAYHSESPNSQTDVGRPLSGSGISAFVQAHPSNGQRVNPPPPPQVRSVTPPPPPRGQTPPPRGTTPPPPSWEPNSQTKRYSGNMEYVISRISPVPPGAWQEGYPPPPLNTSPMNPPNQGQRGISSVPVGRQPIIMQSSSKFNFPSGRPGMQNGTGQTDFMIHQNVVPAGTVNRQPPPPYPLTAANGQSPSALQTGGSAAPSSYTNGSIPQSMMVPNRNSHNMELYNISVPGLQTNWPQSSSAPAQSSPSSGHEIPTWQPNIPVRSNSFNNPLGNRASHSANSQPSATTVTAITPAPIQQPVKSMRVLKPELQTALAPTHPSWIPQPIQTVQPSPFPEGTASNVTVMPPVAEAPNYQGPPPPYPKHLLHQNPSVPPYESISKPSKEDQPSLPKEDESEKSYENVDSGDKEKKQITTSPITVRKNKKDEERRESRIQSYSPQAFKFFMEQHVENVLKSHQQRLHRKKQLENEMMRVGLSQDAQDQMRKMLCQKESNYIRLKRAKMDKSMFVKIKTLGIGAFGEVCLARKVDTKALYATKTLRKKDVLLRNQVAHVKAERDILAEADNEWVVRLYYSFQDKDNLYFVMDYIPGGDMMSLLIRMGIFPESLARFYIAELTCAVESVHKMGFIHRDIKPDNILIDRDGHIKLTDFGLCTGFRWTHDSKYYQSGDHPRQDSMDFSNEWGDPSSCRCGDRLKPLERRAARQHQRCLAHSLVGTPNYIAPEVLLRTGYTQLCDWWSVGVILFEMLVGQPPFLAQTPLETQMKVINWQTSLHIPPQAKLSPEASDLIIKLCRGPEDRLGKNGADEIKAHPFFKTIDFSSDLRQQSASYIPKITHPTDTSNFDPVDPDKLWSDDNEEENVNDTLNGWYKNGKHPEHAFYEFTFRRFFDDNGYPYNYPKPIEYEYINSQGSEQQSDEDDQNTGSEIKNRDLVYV
# Chain of UniProt Q92772 (whole entry, looked up): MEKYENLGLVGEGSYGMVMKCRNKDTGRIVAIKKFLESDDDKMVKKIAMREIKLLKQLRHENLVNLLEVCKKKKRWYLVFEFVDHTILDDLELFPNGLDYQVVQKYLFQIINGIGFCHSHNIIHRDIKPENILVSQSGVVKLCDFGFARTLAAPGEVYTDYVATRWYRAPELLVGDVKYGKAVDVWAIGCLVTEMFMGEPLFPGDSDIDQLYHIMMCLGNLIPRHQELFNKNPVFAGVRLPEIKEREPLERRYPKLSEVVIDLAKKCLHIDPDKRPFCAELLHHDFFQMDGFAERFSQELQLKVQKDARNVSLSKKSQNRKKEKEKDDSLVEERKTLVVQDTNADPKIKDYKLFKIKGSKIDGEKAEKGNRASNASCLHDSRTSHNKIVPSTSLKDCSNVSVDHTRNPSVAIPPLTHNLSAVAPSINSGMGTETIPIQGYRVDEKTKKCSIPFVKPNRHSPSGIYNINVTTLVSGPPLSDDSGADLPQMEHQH

# Set 1 — mode: inhibitor
# SMILES: Cc1nc(Nc2ncc(C(=O)Nc3c(C)cccc3Cl)s2)cc(N2CCN(CCO)CC2)n1
target,tested at,inhibition
"TRAF2 and NCK-interacting protein kinase (TNIK, Homo sapiens, UniProt Q9UKE5)",10 µM,82%
"Macrophage-stimulating protein receptor (MST1R, Homo sapiens, UniProt Q04912)",1 µM,< 50%
"NT-3 growth factor receptor (NTRK3, Homo sapiens, UniProt Q16288)",10 µM,< 50%
"Phosphorylase b kinase gamma catalytic chain, liver/testis isoform (PHKG2, Homo sapiens, UniProt P15735)",10 µM,< 50%
"Serine/threonine-protein kinase LATS1 (LATS1, Homo sapiens, UniProt O95835)",10 µM,< 50%
"Serine/threonine-protein kinase Nek7 (NEK7, Homo sapiens, UniProt Q8TDX7)",10 µM,< 50%
"Cyclin-dependent kinase-like 2 (CDKL2, Homo sapiens, UniProt Q92772)",10 µM,< 50%

# Set 2
# Compound: CN(C(=O)c1cnn2cccnc12)c1cc2c(cc1N1CCOCC1)C(=O)N(C[C@@H](F)C(C)(C)O)C2
# JAK1: Tyrosine-protein kinase JAK1 (JAK1, Homo sapiens, UniProt P23458)
# Chain of UniProt P23458 (whole entry, looked up): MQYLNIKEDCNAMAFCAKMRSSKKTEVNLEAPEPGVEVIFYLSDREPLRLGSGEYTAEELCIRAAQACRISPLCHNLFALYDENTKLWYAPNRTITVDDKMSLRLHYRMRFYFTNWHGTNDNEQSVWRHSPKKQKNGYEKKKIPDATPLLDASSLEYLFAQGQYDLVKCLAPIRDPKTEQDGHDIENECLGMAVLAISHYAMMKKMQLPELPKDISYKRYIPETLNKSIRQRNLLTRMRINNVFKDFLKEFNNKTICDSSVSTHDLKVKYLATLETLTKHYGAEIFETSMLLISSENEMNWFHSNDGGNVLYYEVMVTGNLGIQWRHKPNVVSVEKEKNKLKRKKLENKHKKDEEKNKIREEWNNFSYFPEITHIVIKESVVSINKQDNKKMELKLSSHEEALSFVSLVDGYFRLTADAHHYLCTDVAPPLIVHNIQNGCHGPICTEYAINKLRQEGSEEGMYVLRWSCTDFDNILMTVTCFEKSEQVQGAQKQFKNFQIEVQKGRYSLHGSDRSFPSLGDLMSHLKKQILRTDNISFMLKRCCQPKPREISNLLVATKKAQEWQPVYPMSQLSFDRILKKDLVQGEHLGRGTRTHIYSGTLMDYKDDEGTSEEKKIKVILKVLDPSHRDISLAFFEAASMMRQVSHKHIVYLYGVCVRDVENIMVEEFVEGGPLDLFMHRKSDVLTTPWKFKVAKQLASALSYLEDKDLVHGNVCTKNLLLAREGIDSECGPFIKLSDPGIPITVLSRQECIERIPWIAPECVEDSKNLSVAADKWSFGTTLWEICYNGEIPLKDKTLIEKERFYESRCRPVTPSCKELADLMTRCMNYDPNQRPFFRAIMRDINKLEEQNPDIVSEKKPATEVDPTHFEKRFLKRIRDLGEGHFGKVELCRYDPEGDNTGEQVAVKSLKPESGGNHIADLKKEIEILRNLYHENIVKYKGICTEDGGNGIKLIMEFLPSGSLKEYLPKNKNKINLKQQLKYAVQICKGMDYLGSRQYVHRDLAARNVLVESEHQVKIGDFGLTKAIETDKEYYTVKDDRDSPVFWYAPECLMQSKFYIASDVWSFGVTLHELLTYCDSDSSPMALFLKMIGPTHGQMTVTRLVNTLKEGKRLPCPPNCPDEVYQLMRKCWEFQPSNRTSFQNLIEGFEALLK
# JAK2: Tyrosine-protein kinase JAK2 (JAK2, Homo sapiens, UniProt O60674)
# Chain of UniProt O60674 (whole entry, looked up): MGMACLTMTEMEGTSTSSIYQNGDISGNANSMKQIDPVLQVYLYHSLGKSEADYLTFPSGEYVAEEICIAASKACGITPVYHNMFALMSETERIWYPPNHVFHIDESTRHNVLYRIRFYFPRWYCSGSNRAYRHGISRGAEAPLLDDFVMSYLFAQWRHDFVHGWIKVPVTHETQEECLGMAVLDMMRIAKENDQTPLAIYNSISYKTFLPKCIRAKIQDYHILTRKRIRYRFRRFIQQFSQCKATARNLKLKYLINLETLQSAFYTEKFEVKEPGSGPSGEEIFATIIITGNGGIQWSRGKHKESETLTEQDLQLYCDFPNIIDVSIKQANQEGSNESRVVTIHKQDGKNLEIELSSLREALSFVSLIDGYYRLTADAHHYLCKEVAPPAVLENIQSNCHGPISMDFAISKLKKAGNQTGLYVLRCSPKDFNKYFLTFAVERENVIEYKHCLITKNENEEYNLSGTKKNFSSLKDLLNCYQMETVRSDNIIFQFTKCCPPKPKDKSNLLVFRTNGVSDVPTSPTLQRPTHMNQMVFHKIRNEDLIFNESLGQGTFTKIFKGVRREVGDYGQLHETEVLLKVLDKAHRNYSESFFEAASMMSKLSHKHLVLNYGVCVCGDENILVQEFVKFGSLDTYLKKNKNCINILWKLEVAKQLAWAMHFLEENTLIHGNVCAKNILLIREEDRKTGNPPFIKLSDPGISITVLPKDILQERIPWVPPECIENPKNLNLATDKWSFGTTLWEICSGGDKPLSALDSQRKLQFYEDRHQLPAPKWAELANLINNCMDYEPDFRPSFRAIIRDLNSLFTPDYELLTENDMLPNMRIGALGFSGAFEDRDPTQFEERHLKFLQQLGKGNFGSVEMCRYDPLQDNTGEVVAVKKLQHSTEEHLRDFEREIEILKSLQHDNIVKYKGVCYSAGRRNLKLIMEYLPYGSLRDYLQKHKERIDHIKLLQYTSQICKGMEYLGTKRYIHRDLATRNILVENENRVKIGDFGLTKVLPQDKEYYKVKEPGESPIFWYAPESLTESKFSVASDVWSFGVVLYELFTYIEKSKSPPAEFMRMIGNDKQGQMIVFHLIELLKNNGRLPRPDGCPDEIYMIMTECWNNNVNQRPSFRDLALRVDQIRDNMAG
target,effect on,technique,medium,EC50
JAK1,target engagement in cells,BRET,,> 50 µM
JAK1,target engagement,NanoBRET,live cells,> 50 µM
"Leucine-rich repeat serine/threonine-protein kinase 2 (LRRK2, Homo sapiens, UniProt Q5S007)",target engagement,NanoBRET,live cells,> 50 µM
"Receptor-type tyrosine-protein kinase FLT3 (FLT3, Homo sapiens, UniProt P36888)",target engagement,NanoBRET,live cells,2.7 µM and 2.68 µM and 5.42 µM
JAK2,target engagement,NanoBRET,live cells,> 50 µM
JAK2,target engagement in cells,BRET,,> 50 µM

# Set 3 — cell line: mouse MPNST tumor cells; technique: high-content nuclear imaging; item: cell number; tested at: 10 µM; time: 12 h; notes: mean of 2 replicates; relative to: plate mean; reading: higher = more cells
SMILES,nuclei count
CCOC(=O)CCNc1cc(N2CCc3ccccc3CC2)nc(-c2cccnc2)n1,1.75 z-score
CCCc1c(-c2ccc(O)cc2)nn(-c2ccc(O)cc2)c1-c1ccc(O)cc1,1.77 z-score
O=C1[C@@H]2[C@H]3CC[C@H](C3)[C@@H]2C(=O)N1CCCCN1CCN(c2ncccn2)CC1,-0.17 z-score
CC(C)Cn1cc(C#N)c2cc(Oc3ccc(NC(=O)[C@@H]4CCCN4)cc3)ccc21,-6.17 z-score
CC(C(=O)O)c1cccc(Oc2ccccc2)c1 (centres unmarked),2.06 z-score and 1.23 z-score
COC(=O)/C=C/c1cccc(N(Cc2ccc(-c3ccc(N(C)C)cc3)cc2)C(=O)C2CCCCC2)c1,2.46 z-score

# Single results of other studies
Compound,technique,host,dose,notes,quantity,result
CC(C)n1cnc(-c2ccc(F)cc2)c1-c1ncc(C(=O)Nc2ccc(N3CCN(C)CC3)cc2)[nH]1,phase 2a trial,idiopathic pulmonary fibrosis patients,30 mg once daily,adverse event grade 1,patients with first-degree AV block,1%

# Some of these lines once more (set 3):
SMILES,nuclei count
CC(C)Cn1cc(C#N)c2cc(Oc3ccc(NC(=O)[C@@H]4CCCN4)cc3)ccc21,-6.17 z-score
O=C1[C@@H]2[C@H]3CC[C@H](C3)[C@@H]2C(=O)N1CCCCN1CCN(c2ncccn2)CC1,-0.17 z-score
